{"data": "Measurements pooled from the literature", "note": "Compare with care: the assays were run in different laboratories."}
{"SMILES": "NCCONC(=O)[C@@H]1CC[C@@H]2CN1C(=O)N2OS(=O)(=O)O", "system": "healthy Chinese male subjects", "conditions": "intravenous, 2 g", "measurement": "incidence of serious adverse events", "value": "0%"}
{"SMILES": "C=CC(=O)Nc1cc(Nc2nccc(-c3cn(C)c4ccccc34)n2)c(OC)cc1N(C)CCN(C)C", "test": "item: decreased appetite", "system": "EGFR-mutant MET-altered NSCLC patients", "conditions": "oral, dose not given, AE grade ≥3, all", "measurement": "incidence of treatment-related AEs", "value": "2%"}
{"SMILES": "COc1ccc([C@@H](O)c2cc(-c3ncnc4cc(N5CCOCC5)ccc34)c(F)cc2Cl)nn1", "system": "locally advanced rectal cancer", "conditions": "oral, 150 mg, with: capecitabine and radiotherapy", "measurement": "incidence of proctitis TEAE", "value": "33%"}
{"SMILES": "O=C(Nc1nc2cccc(-c3ccc(CN4CCS(=O)(=O)CC4)cc3)n2n1)C1CC1", "system": "rheumatoid arthritis patients", "conditions": "oral, 75 mg once daily, 4 weeks, TEAE regardless of relatedness", "measurement": "incidence of gastritis", "value": "0%"}
{"SMILES": "C[C@@H](c1ccc2nccn2c1)n1nnc2ncc(-c3cnn(C)c3)nc21", "test": "item: face oedema", "system": "EGFR-mutant MET-altered NSCLC patients", "conditions": "oral, dose not given, AE grade ≥3, all", "measurement": "incidence of treatment-related AEs", "value": "1%"}
{"SMILES": "NC1(C(=O)N[C@@H](CCO)c2ccc(Cl)cc2)CCN(c2nc[nH]c3nccc2-3)CC1", "system": "metastatic CRPC patients", "conditions": "400 mg b.i.d., grade 3 to 4, treatment-related, with: enzalutamide 160 mg daily", "measurement": "incidence of Blindness", "value": "0%"}
{"SMILES": "C[C@@H](N)C1CCN(S(=O)(=O)c2cccc3cnccc23)CC1", "system": "healthy volunteers", "conditions": "oral, 25 mg, single ascending dose, fasted", "measurement": "incidence of syncope", "value": "0%"}
{"SMILES": "CCO[C@H]1CCN(Cc2c(OC)cc(C)c3[nH]ccc23)[C@H](c2ccc(C(=O)O)cc2)C1", "system": "PNH patients, active haemolysis", "conditions": "oral, 200 mg, 8 weeks, treatment", "measurement": "incidence of GGT increase", "value": "0%"}
{"note": "Repeated from above:"}
{"SMILES": "C=CC(=O)Nc1cc(Nc2nccc(-c3cn(C)c4ccccc34)n2)c(OC)cc1N(C)CCN(C)C", "test": "item: decreased appetite", "system": "EGFR-mutant MET-altered NSCLC patients", "conditions": "oral, dose not given, AE grade ≥3, all", "measurement": "incidence of treatment-related AEs", "value": "2%"}
